Experimental data of several laboratories.
Each line is one published result; not all experiments were run side by side. Numbers after ± are the reported error. ≈ marks a conversion by molar mass, not a printed value.

`Nc1ncc(-c2cc(-c3cnn(CC(F)(F)F)c3)ncc2F)nc1C(=O)NC1CNCC(F)C1` (stereo not drawn) has a remaining binding of 44% (CSNK1G3; KINOMEscan; 1 µM; relative to: DMSO control).
With `C[n+]1ccc(/C=N/NC(=O)c2cccc(C(=O)N/N=C/c3cc[n+](C)cc3)n2)cc1` the ΔTm was 8.3 ± 0.2 °C (telomeric G4 DNA hybrid-2; FRET melting; 1 µM, DNA 0.2 µM, added: duplex DNA competitor 10 µM).
The LTB4 level of `COc1cc(O)ccc1CCC(c1ccc(O)cc1)c1cc2c(c(C)c1O)OC(c1ccc(O)cc1)CC2` (mixture of isomers) is reported as 675 ± 346 pg/mL (human blood; 10 µM, added: A23187).
`Cc1ccncc1.[Cl-].[Cl-].[Ru+2].c1cc(-c2ccc3cccnc3n2)nc(-c2ccc3cccnc3n2)c1.c1ccc2cc3nc4c5cccnc5c5ncccc5c4nc3cc2c1` has an EC50 of 1970 ± 90 nM (B16-F10; resazurin; added: light 633 nm, 20 mW, 100 J/cm2).
`C[n+]1ccc(/C=N/NC(=O)C(=O)N/N=C/c2cc[n+](C)cc2)cc1` gave a ΔTm of 1.6 ± 0.7 °C (telomeric G4 DNA hybrid-2; FRET melting; 1 µM, DNA 0.2 µM, added: duplex DNA competitor 10 µM).
With `C=CC(=O)N1[C@@H](c2ccc3c(c2)OCO3)c2[nH]c3ccccc3c2C[C@H]1C(=O)N1CCN(C)CC1` the relative co-enrichment was 100% (human cyclin E1 wild type-3xFLAG:CDK2; co-IP with TMT proteomics, refers to: DDX5; concentration not given, P17844; relative to: wild type DMSO).
`C[n+]1cc(/C=N/NC(=O)C(=O)N/N=C/c2cc3ccccc3[n+](C)c2)cc2ccccc21` has a ΔTm of 2.5 ± 0.2 °C (telomeric G4 DNA hybrid-2; FRET melting; 1 µM, DNA 0.2 µM, added: duplex DNA competitor 10 µM).
`CNS(=O)(=O)Nc1nccc(Cc2c(C)c3ccc(Oc4ncccc4F)cc3oc2=O)c1F` has an IC50 of 858 nM (NCCIT; cell viability; 7 days).
`Cc1ncsc1-c1ccc(C(C)NC(=O)C2CC(O)CN2C(=O)C(NC(=O)CCCCCCCCCCN2CCCC(Nc3ncc(Cl)c(Nc4ccccc4S(=O)(=O)C(C)C)n3)C2)C(C)(C)C)cc1` (stereo not drawn): “log2 fold change” -1.64 (22Rv1; RNA-seq, refers to: SV2C mRNA; concentration not given; relative to: DMSO).
`C[n+]1cc(/C=N/NC(=O)N/N=C/c2cc3ccccc3[n+](C)c2)cc2ccccc21` has a ΔTm of 7.5 ± 0.2 °C (telomeric G4 DNA hybrid-2; FRET melting; 1 µM, DNA 0.2 µM).
Under “percent of control”, `C=CC(=O)Nc1cccc(Cn2ncc3cnc(Nc4cnn(CCOC)c4)nc32)c1` is recorded as 100% (BRSK2 human; binding, KINOMEscan; 100 nM; lower = stronger binding).
For `CC(=O)[O-].O.[Cu+2].[O-]c1ccc(Br)cc1C=NCCN1CCOCC1`, “ferric reducing power” read 55.1% (FRAP; 200 µM).
The EC50 of `CC(C)(C)c1cc(-c2ccc3cccnc3n2)nc(-c2ccc3cccnc3n2)c1.[Cl-].[Cl-].[Ru+2].c1ccc2cc3nc4c5cccnc5c5ncccc5c4nc3cc2c1` is reported as 1650 nM (B16-F10; photocytotoxicity, resazurin; visible light 400-700 nm, 20 mW, 100 J/cm2).
`O=C(N/N=C/c1cc[n+](Cc2ccccc2)c2ccccc12)c1cccc(C(=O)N/N=C/c2cc[n+](Cc3ccccc3)c3ccccc23)n1` has a ΔTm of 24.9 ± 1.5 °C (telomeric G4 DNA hybrid-2; FRET melting; 1 µM, DNA 0.2 µM, added: duplex DNA competitor 10 µM).
Under “log2 fold change”, `COC1CN([C@H]2CC[C@H]([C@@]3(C)Oc4c(Cl)cc(C(=O)NCc5c(SC)cc(C)[nH]c5=O)c(C)c4O3)CC2)C1` is recorded as 1.92 (RNA-seq, refers to: GADD45A; human, whole blood; dose not given, 24 h; relative to: pretreatment baseline).
Under “log2 fold change”, `CN1CCCNC(=O)c2cccc(c2)C(=O)NCCCN(C)CCCNc2cccc3c2C(=O)c2cccc(c2C3=O)NCCC1` is recorded as -0.972 (SAS; RNA-Seq, refers to: TLK1 mRNA; 1 µM, 6 h; relative to: untreated cells).
For `O=C(N/N=C/c1ccc(C[n+]2ccccc2)cc1)N/N=C/c1ccc(C[n+]2ccccc2)cc1`, the ΔTm was 3.9 ± 2 °C (telomeric G4 DNA hybrid-2; FRET melting; 1 µM, DNA 0.2 µM).
`c1ccc(-c2n[nH]cc2-c2ccnc3ccccc23)nc1` — result for “log2 fold change”: -0.18 (CTK1 (Candida albicans); kinase binding, MIB/MS competition; Candida albicans lysate; 10 µM; relative to: DMSO).
For `C=C(NC(=O)c1csc(-c2nc3c(cc2O)-c2nc(cs2)C(=O)NC(C(C)O)C(=O)NC(=C(C)OC)c2nc(cs2)C(=O)NC2c4nc(cs4)C(=O)NC(COC(=O)c4c5c6c(cccc6n4O)COC(=O)C(OC4CC(C)(O)C(N(C)C)C(C)O4)C2OC5)c2nc-3cs2)n1)C(N)=O` (stereo not drawn), the MIC50 was 0.0156 µg/mL (≈ 0.0109 µM) (Enterococcus faecalis; microbial growth; clinical isolate).
For `C[n+]1ccc(/C=N/NC(=O)N/N=C/c2cc[n+](C)c3ccccc23)c2ccccc21`, the ΔTm was 8.6 ± 0.5 °C (telomeric G4 DNA hybrid-2; FRET melting; 1 µM, DNA 0.2 µM).
With `N=C(N)NCCC[C@@H]1NC(=O)[C@H](CCCNC(=N)N)NC(=O)[C@@H](C(c2ccccc2)c2ccccc2)NC(=O)[C@H](Cc2c[nH]c3ccccc23)NC(=O)[C@@H](C(c2ccccc2)c2ccccc2)NC(=O)[C@@H](CCCNC(=N)N)NC(=O)[C@@H](CCCNC(=N)N)NC1=O` the MIC was 1 µg/mL (≈ 0.795 µM) (Blastomyces dermatitidis; BD-2).

Excerpt of the above:
`Nc1ncc(-c2cc(-c3cnn(CC(F)(F)F)c3)ncc2F)nc1C(=O)NC1CNCC(F)C1` (stereo not drawn) has a remaining binding of 44% (CSNK1G3; KINOMEscan; 1 µM; relative to: DMSO control).
With `C[n+]1ccc(/C=N/NC(=O)c2cccc(C(=O)N/N=C/c3cc[n+](C)cc3)n2)cc1` the ΔTm was 8.3 ± 0.2 °C (telomeric G4 DNA hybrid-2; FRET melting; 1 µM, DNA 0.2 µM, added: duplex DNA competitor 10 µM).
